Results gathered from unrelated publications.
Each numbered part is a random draw from the data of one study; scales do not carry over between parts.
Sequence of UniProt P31749 (whole entry, looked up): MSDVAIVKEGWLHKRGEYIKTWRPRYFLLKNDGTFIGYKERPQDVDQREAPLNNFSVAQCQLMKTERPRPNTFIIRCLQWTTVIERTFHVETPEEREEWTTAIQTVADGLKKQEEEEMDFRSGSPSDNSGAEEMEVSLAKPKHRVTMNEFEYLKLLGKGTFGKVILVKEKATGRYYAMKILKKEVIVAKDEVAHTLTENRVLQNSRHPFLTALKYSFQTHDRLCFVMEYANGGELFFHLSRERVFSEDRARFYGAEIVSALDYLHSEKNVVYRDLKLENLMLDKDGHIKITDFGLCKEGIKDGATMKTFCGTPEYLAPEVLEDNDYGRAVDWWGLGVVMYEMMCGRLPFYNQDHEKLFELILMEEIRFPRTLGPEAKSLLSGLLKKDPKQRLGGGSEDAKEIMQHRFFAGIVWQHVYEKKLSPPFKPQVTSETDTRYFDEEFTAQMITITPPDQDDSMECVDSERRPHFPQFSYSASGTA
Sequence of UniProt P24723 (whole entry, looked up): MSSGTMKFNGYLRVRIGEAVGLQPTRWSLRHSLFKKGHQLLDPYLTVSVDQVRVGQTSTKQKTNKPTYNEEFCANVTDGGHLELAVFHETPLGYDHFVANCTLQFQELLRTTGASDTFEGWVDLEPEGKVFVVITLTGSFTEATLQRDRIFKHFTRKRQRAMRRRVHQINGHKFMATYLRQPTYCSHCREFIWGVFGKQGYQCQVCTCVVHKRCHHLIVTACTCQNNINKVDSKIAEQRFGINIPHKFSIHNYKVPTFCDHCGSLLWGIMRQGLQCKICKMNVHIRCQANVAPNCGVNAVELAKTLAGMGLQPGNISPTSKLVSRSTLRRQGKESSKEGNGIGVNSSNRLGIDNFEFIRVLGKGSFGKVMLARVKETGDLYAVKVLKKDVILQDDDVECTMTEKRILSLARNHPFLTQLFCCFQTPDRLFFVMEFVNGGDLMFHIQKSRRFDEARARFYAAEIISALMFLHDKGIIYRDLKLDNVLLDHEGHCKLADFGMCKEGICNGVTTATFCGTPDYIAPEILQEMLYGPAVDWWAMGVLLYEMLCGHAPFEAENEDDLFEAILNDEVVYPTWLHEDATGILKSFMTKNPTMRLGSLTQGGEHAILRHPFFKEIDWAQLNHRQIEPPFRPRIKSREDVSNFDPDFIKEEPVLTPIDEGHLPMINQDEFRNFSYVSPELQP
Sequence of UniProt Q13153 (whole entry, looked up): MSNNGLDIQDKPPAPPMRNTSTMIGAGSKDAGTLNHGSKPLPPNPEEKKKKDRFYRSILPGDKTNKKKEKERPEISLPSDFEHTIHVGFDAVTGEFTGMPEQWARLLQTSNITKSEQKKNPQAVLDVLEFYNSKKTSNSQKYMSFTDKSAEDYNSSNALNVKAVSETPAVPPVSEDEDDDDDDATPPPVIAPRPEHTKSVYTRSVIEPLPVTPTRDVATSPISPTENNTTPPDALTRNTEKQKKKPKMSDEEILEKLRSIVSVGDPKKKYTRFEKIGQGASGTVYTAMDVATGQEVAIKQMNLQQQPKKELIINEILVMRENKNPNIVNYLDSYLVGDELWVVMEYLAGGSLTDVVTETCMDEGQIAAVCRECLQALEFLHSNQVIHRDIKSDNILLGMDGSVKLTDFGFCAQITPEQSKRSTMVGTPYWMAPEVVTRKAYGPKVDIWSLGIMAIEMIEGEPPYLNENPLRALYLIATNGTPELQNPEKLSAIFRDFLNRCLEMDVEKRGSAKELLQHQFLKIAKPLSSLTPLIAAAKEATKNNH
Sequence of UniProt P00519 (whole entry, unmodified, looked up): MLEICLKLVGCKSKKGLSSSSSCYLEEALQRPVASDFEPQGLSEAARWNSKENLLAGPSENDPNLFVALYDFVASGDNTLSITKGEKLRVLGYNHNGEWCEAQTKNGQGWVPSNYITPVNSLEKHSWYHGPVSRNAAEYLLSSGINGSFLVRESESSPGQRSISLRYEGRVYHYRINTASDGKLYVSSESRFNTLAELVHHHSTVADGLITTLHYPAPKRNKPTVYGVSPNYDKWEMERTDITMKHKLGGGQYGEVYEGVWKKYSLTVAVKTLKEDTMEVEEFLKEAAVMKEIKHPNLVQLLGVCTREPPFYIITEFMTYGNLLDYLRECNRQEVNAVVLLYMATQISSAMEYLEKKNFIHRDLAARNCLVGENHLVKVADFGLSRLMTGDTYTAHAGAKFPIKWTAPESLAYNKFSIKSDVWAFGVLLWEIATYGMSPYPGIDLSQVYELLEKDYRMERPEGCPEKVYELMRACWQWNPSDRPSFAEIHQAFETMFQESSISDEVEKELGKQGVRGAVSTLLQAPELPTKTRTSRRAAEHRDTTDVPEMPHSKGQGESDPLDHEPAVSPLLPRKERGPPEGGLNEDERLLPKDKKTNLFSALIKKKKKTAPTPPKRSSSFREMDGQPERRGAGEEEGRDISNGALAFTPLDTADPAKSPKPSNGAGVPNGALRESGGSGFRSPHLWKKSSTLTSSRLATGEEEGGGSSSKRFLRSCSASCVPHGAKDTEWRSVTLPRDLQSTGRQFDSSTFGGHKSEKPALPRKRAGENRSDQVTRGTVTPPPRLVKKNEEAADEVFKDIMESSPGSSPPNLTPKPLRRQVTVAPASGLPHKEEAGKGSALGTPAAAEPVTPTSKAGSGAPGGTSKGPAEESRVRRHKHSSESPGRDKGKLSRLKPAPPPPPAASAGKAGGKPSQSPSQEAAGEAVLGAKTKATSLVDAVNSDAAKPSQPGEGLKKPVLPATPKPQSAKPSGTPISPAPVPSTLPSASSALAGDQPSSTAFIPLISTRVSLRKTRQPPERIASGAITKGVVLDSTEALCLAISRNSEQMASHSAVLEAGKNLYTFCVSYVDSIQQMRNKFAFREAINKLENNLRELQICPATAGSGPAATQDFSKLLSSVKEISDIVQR
Sequence of UniProt Q06418 (whole entry, looked up): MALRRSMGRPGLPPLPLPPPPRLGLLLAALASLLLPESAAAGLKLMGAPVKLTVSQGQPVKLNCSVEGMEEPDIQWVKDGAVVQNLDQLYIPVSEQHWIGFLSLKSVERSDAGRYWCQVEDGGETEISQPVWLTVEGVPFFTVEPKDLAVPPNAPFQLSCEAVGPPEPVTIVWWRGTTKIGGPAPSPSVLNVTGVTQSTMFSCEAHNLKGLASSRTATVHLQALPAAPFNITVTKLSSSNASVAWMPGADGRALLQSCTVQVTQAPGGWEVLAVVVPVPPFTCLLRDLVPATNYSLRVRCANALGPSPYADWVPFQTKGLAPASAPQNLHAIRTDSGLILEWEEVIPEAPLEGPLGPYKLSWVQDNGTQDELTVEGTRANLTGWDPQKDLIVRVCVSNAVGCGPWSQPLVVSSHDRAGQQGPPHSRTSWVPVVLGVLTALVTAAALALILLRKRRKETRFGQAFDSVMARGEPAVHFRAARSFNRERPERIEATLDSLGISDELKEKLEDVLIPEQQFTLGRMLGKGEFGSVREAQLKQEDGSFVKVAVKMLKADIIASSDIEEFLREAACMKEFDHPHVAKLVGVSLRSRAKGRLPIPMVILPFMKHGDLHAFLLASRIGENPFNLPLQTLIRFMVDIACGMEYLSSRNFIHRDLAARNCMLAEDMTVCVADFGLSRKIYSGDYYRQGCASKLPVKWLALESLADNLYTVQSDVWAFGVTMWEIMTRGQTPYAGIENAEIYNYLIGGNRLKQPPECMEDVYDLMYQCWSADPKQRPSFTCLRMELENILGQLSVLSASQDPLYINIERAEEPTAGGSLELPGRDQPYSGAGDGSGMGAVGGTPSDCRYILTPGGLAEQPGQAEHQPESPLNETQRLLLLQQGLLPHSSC
Sequence of UniProt Q99683 (whole entry, looked up): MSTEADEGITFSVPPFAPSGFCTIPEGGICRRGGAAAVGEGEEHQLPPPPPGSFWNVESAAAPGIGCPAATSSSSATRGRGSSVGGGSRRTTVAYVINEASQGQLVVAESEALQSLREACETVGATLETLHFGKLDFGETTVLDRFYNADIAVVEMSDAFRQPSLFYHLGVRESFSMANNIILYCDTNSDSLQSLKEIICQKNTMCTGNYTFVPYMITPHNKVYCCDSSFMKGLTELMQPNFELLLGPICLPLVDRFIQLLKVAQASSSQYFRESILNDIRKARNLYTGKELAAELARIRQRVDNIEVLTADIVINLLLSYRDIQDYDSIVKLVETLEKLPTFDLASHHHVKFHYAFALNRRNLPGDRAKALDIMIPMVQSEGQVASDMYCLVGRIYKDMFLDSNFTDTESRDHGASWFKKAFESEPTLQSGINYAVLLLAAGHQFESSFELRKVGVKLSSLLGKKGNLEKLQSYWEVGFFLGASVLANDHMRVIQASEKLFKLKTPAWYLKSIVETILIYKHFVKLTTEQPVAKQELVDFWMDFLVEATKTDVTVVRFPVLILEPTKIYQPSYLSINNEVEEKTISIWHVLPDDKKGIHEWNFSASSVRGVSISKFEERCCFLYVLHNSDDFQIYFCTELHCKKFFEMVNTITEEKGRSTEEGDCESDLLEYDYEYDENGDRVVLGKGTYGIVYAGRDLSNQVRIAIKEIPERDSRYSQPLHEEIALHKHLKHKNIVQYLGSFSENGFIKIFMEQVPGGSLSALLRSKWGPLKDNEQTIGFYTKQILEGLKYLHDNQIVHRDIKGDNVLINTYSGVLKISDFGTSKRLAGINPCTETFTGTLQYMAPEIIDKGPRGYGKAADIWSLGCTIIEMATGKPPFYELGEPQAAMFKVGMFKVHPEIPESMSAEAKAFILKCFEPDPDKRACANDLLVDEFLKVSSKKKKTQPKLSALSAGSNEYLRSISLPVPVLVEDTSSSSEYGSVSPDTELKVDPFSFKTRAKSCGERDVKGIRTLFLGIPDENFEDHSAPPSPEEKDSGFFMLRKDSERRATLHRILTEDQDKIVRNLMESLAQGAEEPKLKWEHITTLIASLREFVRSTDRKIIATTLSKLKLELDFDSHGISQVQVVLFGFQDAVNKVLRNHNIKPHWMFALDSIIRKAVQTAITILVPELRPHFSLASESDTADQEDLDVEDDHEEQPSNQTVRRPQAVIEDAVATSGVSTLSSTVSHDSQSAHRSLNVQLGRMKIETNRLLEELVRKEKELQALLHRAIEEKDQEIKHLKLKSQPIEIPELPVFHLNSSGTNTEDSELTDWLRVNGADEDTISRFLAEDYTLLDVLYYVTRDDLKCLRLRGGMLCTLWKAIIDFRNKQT

Sample 1 — species: human; medium: microsomes or S9; concentration: 2 µM; time: 0.5 h
For `COC(=O)c1ccc(C(=O)N2CCCN(C(=O)C[C@H](N)Cc3cc(F)c(F)cc3F)CC2)cc1`, the remaining compound was 67.5%.
With `O=C(NC1CCCCC1)c1cnn2c(=O)cc(-c3ccc(F)cc3F)[nH]c12` the remaining compound was 46.2%.
The remaining compound of `Cc1ncsc1CC[S+]([O-])c1ccc(S(C)(=O)=O)cc1` (stereo not drawn) is reported as 75.3%.
`COC(=O)c1c(OC)cc2c(c1C)Oc1c(Cl)c(O)c(Cl)c(C)c1C(=O)O2` gave a remaining compound of 77.8%.
The remaining compound of `O=C(CCn1[nH]c(=O)c2ccccc2c1=O)NN(Cc1ccccc1)Cc1ccccc1` is reported as 52.6%.
The remaining compound of `CCOc1ccc(S(=O)(=O)/N=C2/CCCCCN2)cc1` is reported as 61.5%.
The remaining compound of `CC(=O)Nc1nc2ccc(-c3nn(C(C)C)c4nc(N)ncc34)cc2s1` is reported as 66.9%.
`CC1CCN(CCNS(=O)(=O)c2ccc(-c3ccc(=O)[nH]n3)s2)CC1` has a remaining compound of > 100%.
With `Cn1nc(C(=O)N2CCOCC2)cc1C(=O)Nc1ccc(F)cc1OC(F)F` the remaining compound was 62.5%.
`C/C(=C\COc1ccc2ccc(=O)oc2c1)CC/C=C(\C)CCC(=O)C(C)(C)O` gave a remaining compound of 65.3%.
The remaining compound of `O=C(Nc1nccs1)C1Cc2ccccc2CN1S(=O)(=O)c1cccs1` (stereo not drawn) is reported as 0.233%.
The remaining compound of `CCn1ccc(C(=O)Nc2c(C)cc(C)cc2C)n1` is reported as 90.4%.
`Cc1nnc(C)n1/N=C/c1ccc(Cl)cc1Cl` gave a remaining compound of 78%.

Sample 2 — cell line: HaCaT; concentration: 100 µM; time: 36 h
`CNCc1cc(-c2ccccc2F)n(S(=O)(=O)c2cccnc2)c1` has a viability of 61.9%.
The viability of `COC(=O)C1=C(C)NC(C)=C(C(=O)OC(C)(C)CN(C)CCC(c2ccccc2)c2ccccc2)C1c1cccc([N+](=O)[O-])c1` (stereo not drawn) is reported as 91%.
The viability of `CO[C@H]1C[C@@H]2CC[C@@H](C)[C@@](O)(O2)C(=O)C(=O)N2CCCC[C@H]2C(=O)O[C@H]([C@H](C)C[C@@H]2CC[C@@H](O)[C@H](OC)C2)CC(=O)[C@H](C)/C=C(\C)[C@@H](O)[C@@H](OC)C(=O)[C@H](C)C[C@H](C)/C=C/C=C/C=C/1C` is reported as 5.92%.
The viability of `O=c1cc(-c2ccc(O)c(O)c2)oc2cc(O)cc(O)c12` is reported as 32.2%.
`CC(C(=O)O)c1cccc(Oc2ccccc2)c1` (stereo not drawn) gave a viability of 71.1%.
With `CN1CCc2c(c3ccccc3n2Cc2ccccc2)C1` the viability was 85.7%.
With `Nc1cccc2c1CN(C1CCC(=O)NC1=O)C2=O` (stereo not drawn) the viability was 92.2%.
For `CN[C@@H]1[C@H](O)[C@H](NC)[C@H]2O[C@@]3(O)C(=O)C[C@@H](C)O[C@H]3O[C@@H]2[C@H]1O`, the viability was 98.1%.
For `CN1C[C@@H]2c3ccccc3Oc3ccc(Cl)cc3[C@H]2C1` (racemic), the viability was 5.55%.
For `COc1cc(/C=C/C(=O)O)ccc1O`, the viability was 87.9%.
`C[C@@H](c1ncncc1F)[C@](O)(Cn1cncn1)c1ccc(F)cc1F` has a viability of 98%.
`Nc1cc(-c2ccncc2)c[nH]c1=O` has a viability of 91%.
`CC(C)C[C@H](NC(=O)CNC(=O)c1cc(Cl)ccc1Cl)B1OC(=O)C(CC(=O)O)(CC(=O)O)O1` has a viability of 4.79%.
With `CCN(CC)CCOC(=O)C(c1ccccc1)c1ccccc1` the viability was 69.7%.
`COc1ccc2[nH]c([S+]([O-])Cc3ncc(C)c(OC)c3C)nc2c1` (stereo not drawn) has a viability of 82.1%.

Sample 3 — method: phase 2a trial; species: idiopathic pulmonary fibrosis patients
Compound: CC(C)n1cnc(-c2ccc(F)cc2)c1-c1ncc(C(=O)Nc2ccc(N3CCN(C)CC3)cc2)[nH]1
60 mg once daily, adverse event grade 5 — “patients with cholecystitis”: 0%.
30 mg once daily, adverse event grade 1 — “patients with cholecystitis”: 0%.
For dose not given, adverse event grade 2, all dose arms pooled: “patients with cholecystitis” read 0%.
The “patients with cholecystitis” was 0% (60 mg once daily, adverse event grade 1).
The “patients with cholecystitis” was 0% (30 mg once daily, adverse event grade 5).
It gave 0% for “patients with cholecystitis” (dose not given, adverse event grade 4, all dose arms pooled).
It gave 0% for “patients with cholecystitis” (60 mg once daily, adverse event grade 2).
It gave 0% for “patients with cholecystitis” (dose not given, adverse event grade 3, all dose arms pooled).

Sample 4 — concentration: 1 µM
SMILES: CCC(=O)N[C@@H]1CC[C@H](C(=O)N(C)c2ccc(-c3nc4ccccc4o3)cc2)C1
The remaining binding was 100% (CSNK1D (Homo sapiens, UniProt P48730); cell-free assay, competition with immobilised ligand).
For Ribosomal protein S6 kinase alpha-4, C-terminal kinase domain (RPS6KA4, Homo sapiens, UniProt O75676); cell-free assay, competition with immobilised ligand: remaining binding read 100%.
For CAMKK2 (Homo sapiens, UniProt Q96RR4); cell-free assay, competition with immobilised ligand: remaining binding read 100%.
It gave 100% for remaining binding (MAP3K5 (Homo sapiens, UniProt Q99683); cell-free assay, competition with immobilised ligand).
The remaining binding was 100% (STK32A (Homo sapiens, UniProt Q8WU08); cell-free assay, competition with immobilised ligand).
TYRO3 (Homo sapiens, UniProt Q06418); cell-free assay, competition with immobilised ligand — remaining binding: 82%.
PAK1 (Homo sapiens, UniProt Q13153); cell-free assay, competition with immobilised ligand — remaining binding: 82%.
The remaining binding was 100% (FLT4 (Homo sapiens, UniProt P35916); cell-free assay, competition with immobilised ligand).
Tyrosine-protein kinase ABL1, phosphorylated (ABL1, Homo sapiens, UniProt P00519, F317I); binding — remaining binding: 87%.
It gave 100% for remaining binding (CAMKK1 (Homo sapiens, UniProt Q8N5S9); cell-free assay, competition with immobilised ligand).
It gave 100% for remaining binding (AKT1 (Homo sapiens, UniProt P31749); cell-free assay, competition with immobilised ligand).
Cyclin-dependent kinase 4, with cyclin D3 (CDK4, Homo sapiens, UniProt P11802); cell-free assay, competition with immobilised ligand — remaining binding: 100%.
MARK1 (Homo sapiens, UniProt Q9P0L2); cell-free assay, competition with immobilised ligand — remaining binding: 86%.
For PRKCH (Homo sapiens, UniProt P24723); cell-free assay, competition with immobilised ligand: remaining binding read 95%.
PRKCD (Homo sapiens, UniProt Q05655); cell-free assay, competition with immobilised ligand — remaining binding: 89%.

For quick reference, copied from above (sample 2):
With `CN1CCc2c(c3ccccc3n2Cc2ccccc2)C1` the viability was 85.7%.
With `Nc1cccc2c1CN(C1CCC(=O)NC1=O)C2=O` (stereo not drawn) the viability was 92.2%.
For `CN[C@@H]1[C@H](O)[C@H](NC)[C@H]2O[C@@]3(O)C(=O)C[C@@H](C)O[C@H]3O[C@@H]2[C@H]1O`, the viability was 98.1%.
For `CN1C[C@@H]2c3ccccc3Oc3ccc(Cl)cc3[C@H]2C1` (racemic), the viability was 5.55%.
For `COc1cc(/C=C/C(=O)O)ccc1O`, the viability was 87.9%.
`C[C@@H](c1ncncc1F)[C@](O)(Cn1cncn1)c1ccc(F)cc1F` has a viability of 98%.
